Published values pooled from the literature.
Numbered parts are unrelated; each lists some results of a single study.

Sample 1 — technique: protein-binding microarray; molecule type: double-stranded DNA, one strand shown; sample: in vitro; tested at: 2540 nM top; notes: 60-bp whole probe; with: salmon DNA 0.4 mg/ml; baseline: random background probes; reading: higher = stronger binding; constant ends, left off below: GCCTAGCAC … GTCTTGATTCGCTTGACGCTGCTG
Target: Interferon regulatory factor 3, full length, phosphomimetic (IRF3, Homo sapiens, UniProt Q14653, residues 1-427, S386D/S396D/S398D/S402D/T404D/S405D)
Target sequence (chain): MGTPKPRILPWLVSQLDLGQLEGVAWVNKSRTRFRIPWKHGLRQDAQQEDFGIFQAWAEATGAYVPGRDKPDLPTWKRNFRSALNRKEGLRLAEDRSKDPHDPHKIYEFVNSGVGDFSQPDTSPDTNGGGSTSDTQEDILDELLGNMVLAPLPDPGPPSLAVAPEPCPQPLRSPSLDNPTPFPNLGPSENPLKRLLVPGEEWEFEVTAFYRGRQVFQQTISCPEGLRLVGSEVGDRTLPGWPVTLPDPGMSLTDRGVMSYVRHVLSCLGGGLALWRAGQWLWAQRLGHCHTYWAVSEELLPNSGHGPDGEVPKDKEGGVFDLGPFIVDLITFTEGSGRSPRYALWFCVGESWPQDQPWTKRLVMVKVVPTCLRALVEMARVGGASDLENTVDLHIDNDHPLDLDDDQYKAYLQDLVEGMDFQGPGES
Strand | fitted relative affinity [z-score]
TAAGGTATCCTTCTCCTTTAGTGCTAG | 7.35
CTAGGTTTCGGACTGGGTTAGTGCTAG | 4.26
TCAAGTCTGGGCTACAACACTGTGCTA | -0.763
TTAGGCTTCCTTATCCTTTAGTGCTAG | 0.947
TTAGATTTCATACTGGATTAGTGCTAG | 1.15
TTAGGTTTCGGGAGTGGGTTAGTGCTA | 3.03
GACGGTATCGAACTGGGGACGTGCTAG | 0.506
TCAGATTTCCCCACCATACTGTGCTAG | 1.27
TTAGGTTACCTTCTCCTTTAGTGCTAG | 6.73
TTAGGTTTCCTACTGCTTCAGTGCTAG | 4.87
ATGGAAATCTCAATGGGTTAGTGCTAG | -0.434
TTAGGTTCCGGTTTCGGTAAGTGCTAG | 7.24
TCACTTTTCCCCCTAGTACTGTGCTAG | 2.03
TCAGTTTTCTTTTCATTACTGTGCTAG | 6.94
GATTTCTTCCCTGTGAAAACGTGCTAG | 1.36
GACGGTATCTTTTTCCTGACGTGCTAG | 2.42
GACGGTTTGGGTTTCGGGACGTGCTAG | 2.21
CACGGTATCGGGTTTCGGGACGTGCTA | 2.79
TTCACTATTGCTTCCTCTTTGTGCTAG | 0.552
TTAGGTTTCCTAATCCTTTAGTGCTAG | 6.75
GACGGTATCCCTATCCTGACGTGCTAG | 4.18

Sample 2 — technique: RNAcompete; molecule type: RNA; sample: in vitro; tested at: 20 nM; notes: 7-mer, probes averaged, single round; baseline: mean of 7-mers; reading: higher = stronger binding
Target: PABPC1L2, full length, GST fusion (mouse, UniProt A0ABA7IW68)
Target sequence (chain): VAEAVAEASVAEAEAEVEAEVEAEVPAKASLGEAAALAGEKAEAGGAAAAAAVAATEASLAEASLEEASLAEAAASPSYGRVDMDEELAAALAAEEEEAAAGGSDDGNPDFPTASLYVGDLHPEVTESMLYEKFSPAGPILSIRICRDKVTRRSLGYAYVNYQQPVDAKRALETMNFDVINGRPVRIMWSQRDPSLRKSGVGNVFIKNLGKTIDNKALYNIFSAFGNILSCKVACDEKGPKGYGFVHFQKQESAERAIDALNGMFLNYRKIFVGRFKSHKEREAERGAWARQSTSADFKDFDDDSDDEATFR
Strand | 7-mer Z-score
GACGGGC | 0.157
UGUCGGA | -0.151
AGCGCGC | -0.209
CGACCGU | -0.168
GUAGAUU | -0.0409
UAACUCA | -0.155
AUUAUAU | -0.0174
CAGUACG | -0.108
GCUACCC | -0.249
UUCCGCA | -0.293
UAUGCAC | -0.179
GUGUCUG | -0.266
UGAUCGA | -0.0554
GCAUCUC | -0.266
UCACCGC | -0.215
UCUGCGA | -0.132
UCAUAAG | -0.126
AGCUCAU | -0.103
CGUGUAU | -0.345
UUGCACG | -0.284
UGCAACG | -0.202
GCGUAAG | -0.391
AUCAAAA | 4.62
GAGGUGA | 0.211
GUAUUUU | -0.342

Sample 3 — technique: protein-binding microarray; molecule type: double-stranded DNA, one strand shown; sample: in vitro; tested at: 0.8 µM; notes: whole 60-bp probe, no competitor; reading: higher = stronger binding; constant ends, left off below: … GTCTTGATTCGCTTGACGCTGCTG
Target: Centromere-binding protein 1, full length, N-terminal tag (CBF1, Saccharomyces cerevisiae, UniProt P17106, residues 1-351)
UniProt P17106, sequence (whole entry, looked up): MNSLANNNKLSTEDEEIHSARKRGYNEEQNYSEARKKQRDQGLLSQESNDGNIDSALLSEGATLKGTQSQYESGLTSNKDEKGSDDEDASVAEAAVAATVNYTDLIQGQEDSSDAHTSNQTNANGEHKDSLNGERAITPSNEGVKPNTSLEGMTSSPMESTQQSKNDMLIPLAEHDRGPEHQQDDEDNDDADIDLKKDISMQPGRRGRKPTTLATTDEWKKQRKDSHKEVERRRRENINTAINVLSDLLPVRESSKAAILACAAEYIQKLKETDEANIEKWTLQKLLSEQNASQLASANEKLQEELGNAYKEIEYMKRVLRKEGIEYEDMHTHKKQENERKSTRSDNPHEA
Strand | fluorescence intensity [a.u.]
GAAAGGACATTATCACTCATCACCATGAACATTTAG | 528
CTATATTTAAAATATCAGCAGAGGCGTAAAAGTTTC | 528
GAATTTGTTATTGATCACGCCTTGTAGGGGAAATAG | 1470
GAACACAGCGAATTTCCTCACATGTAGGGACCGTAG | 647
GAACTTTTCTGGATGGGCGTGATTGTATTAGCTTAG | 738
CCTAACTACTATAGTCGTGACACATAGCTTCGTACA | 686
GAAACAACGTGCGTCCATGTGCAAGAACAAGTATAG | 707
GAAGAAAGCAATGCTGATGATGTACCACAAAGTTAG | 552
GAAATAAAAGAAAGCATCACCATGTAATGAAATTAG | 512
CTATTCGTGGATGGTCATGCGTATTTAAAAACATTC | 1130
GAACAATGGAAAAGGAACATCACGTGAAGCGAATAG | 12500
GAAATTTTTGCTACACACGTTTATCCATTGAATTAG | 580
CTATCGAGAATTCGTGATTCAATGTTCATTATTTTC | 505
GAATGACATCATTCTCATCAGACATACAGAAACTAG | 533
CTATGCTGGTGAGGTGGCGTGGACGGTTTGGTTTTC | 572
CTACAGCGAATGCACCACCTCCAGAGGCATTCCTTC | 492

Sample 4 — technique: protein binding microarray; molecule type: double-stranded DNA, one strand shown; sample: in vitro; tested at: not given; baseline: not given; reading: higher = stronger binding
Target: Histone acetyltransferase KAT6A, winged helix 1, GST fusion (KAT6A, Homo sapiens, UniProt Q92794, residues 1-85)
Notes: 8-mer, flanks averaged, mean of 2 arrays, mostly near background
Target sequence (chain): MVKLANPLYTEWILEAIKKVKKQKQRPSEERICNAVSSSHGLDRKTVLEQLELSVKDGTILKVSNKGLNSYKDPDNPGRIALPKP
Strand | E-score
CTGAGCCA | 0.00169
AAAGAAAT | -0.31
CCAGACAA | -0.234
CTCCGCAC | 0.061
ACATAAGT | -0.206
AGAGATGC | -0.0589
ACTACATC | -0.171
ACAGGGCG | 0.239
CAAACCCC | -0.0702
GGTCTGCA | 0.0836
CCAACTTC | -0.177
GAGAACGA | -0.0999
GTGAGAAA | -0.0359
GCTCCACA | -0.0285
CACTTTTA | -0.109
ATCAACAG | -0.0454
AAGGTCGA | -0.033
AAGAAATG | -0.234
GACAAAGC | 0.0705
ATGGGATG | -0.22
CAATTTAG | -0.175
CCACTTAG | -0.151
GGACCCTA | -0.193

Sample 5 — technique: RNA Bind-n-Seq; molecule type: RNA; sample: in vitro; tested at: not given; notes: RNA with constant flanks, ends assumed; baseline: input RNA pool; reading: higher = stronger binding
Target: RING finger protein unkempt homolog, zinc fingers 1-6, GST-SBP tag (UNK, Homo sapiens, UniProt Q9C0B0, residues 30-357)
UniProt Q9C0B0, sequence (30-357, looked up): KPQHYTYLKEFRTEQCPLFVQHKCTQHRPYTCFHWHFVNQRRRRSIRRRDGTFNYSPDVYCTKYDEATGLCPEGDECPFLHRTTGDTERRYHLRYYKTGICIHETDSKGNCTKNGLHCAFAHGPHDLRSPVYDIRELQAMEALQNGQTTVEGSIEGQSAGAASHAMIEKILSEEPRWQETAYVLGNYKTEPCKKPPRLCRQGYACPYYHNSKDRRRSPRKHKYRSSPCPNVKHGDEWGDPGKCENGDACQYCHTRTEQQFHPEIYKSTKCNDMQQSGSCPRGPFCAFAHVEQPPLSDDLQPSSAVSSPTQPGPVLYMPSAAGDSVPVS
Constant ends, left off below: GGGAGUUCUACAGUCCGACGAUC … CAACAGAGGAUUGAGCAUCA
Strand | bound/input enrichment [ratio]
GUCCCCCUCUUGCUAAAUAAUGUGAAAGGGGAGCCCCCAGAGGACUCACUGCCUGCCGAUCACUUUCAGACACAAACUGAGCCAGUGGACUUGUCAAUCAACAAAGCCAGGACCUCCCCU | 0.158
AUGCUCCUAGAAGCUGAAAAUGACAAAGAAGUUGAAAUUCUUAAAGAUAUCCGGGCACAUUUCCGUGCAAUGGUGGCCAACUUGAUUCAGUGUGUUCCAGUUCACCACCGAAGAUUUCUC | 0.193
ACGGCCAUGGCAACUAGUCUCACGAAUGUAGGAAACUCAUUUAGUGGUCCAGCUAAUCCUUCCGUGUCUAGAUCUAAUAAGUUUCAGAACUCGUCAGUGGAAGAUGAUGAUGAUGUUGUU | 1.59
AUGAUGAAAGGAGAAUUUUAUGUCAUUGAAUAUGCUGCUUGUGACGCUACUUACAAUGAAACCGUCACAUUUGAACGACUUCGGCCUGUCAAUCAAAAUAAAACUGUCAAAAAAAAUACC | 0.285
GAUAUUUGUAAAUAAAGGUAGAAAUAUUAGAUCCAUUUCUGCAGAACUUACUGUACAGUUCCGUUGGAGUGUAGCACUGAAGAACUGUCAGCUCAGCGUUGACUGAGGAGAUAGUGAAAA | 0.783
ACCGGCGCAGUGCCCCGUCCUGAUUGAUCGCAUCGCUGGGCUCAGAUGACUGUAAAAUGAACCGAUGAAAUCCUUGCUUCUGGAAGAUUUUCUUGGGCAUCUCCGGGAAAGUGCGUUUUA | 0.174
ACACGAUGUUUUUUCAAGAUUUUAGACCCUUUCUAAGUAGCAGUCCACUGGACCAAGAUAACCGAGCCAAUGAAAGGGGUCACCAGACUCACACUGACUUCUGGGGAGCAAGACCUCCAC | 0.194
AGAAAUGGGUCGCUCCAAUUCUAGAUCACAUUCUUCAAGGUCAAAGUCUAGAUCACAGUCCCGUUCUCGAUCAAGAUCAAGAUCUCAUUCUAGAAAGAAGCGAUACAGUUCUAGGUCUCG | 0.163
UAAAUAAGUGUUUAAAAUAUAUAUAUACACCAAGGUUCCACCCUAAGAAAAAGGCUGGACCCGUUUCAGUCCGAGCCCUUAAAUAAUCCUUCUGUUUUUUUUUACGUUGAAUCUUUCUGC | 1.16
CCGGGACAGUGUGGCCGAGCAGAUGGCUAUGUGCUAGAGGGCAAAGAGUUGGAGUUCUAUCUCCGGAAAAUCAAGGCCCGCAAAGGCAAAUAAAUCCUUGUUUUGUCUUCACCCAUGUAA | 0.105
CAAAGGAGUCUCGAAGAGUCUCAAGGGAAAAUAGCCCAACUGGAGGGAAAACUUGUUUCAACCGAGAAAGAAAAGAUUGAUGAAAAAUCUGAAACAGAAAAACUCUUGGAAUACAUCGAA | 0.151
